Measurements gathered from unrelated publications.
Each line is one published result; not all experiments were run side by side. Numbers after ± are the reported error.

CC#CC(=O)N1CC[C@@H](n2c(=O)n(-c3ccc(Oc4ccccc4)cc3)c3c(N)ncnc32)C1  Cmax (human, plasma; oral, 300 mg twice daily, cycle 1 day 1, fasting): 886 ng/mL
NS(=O)(=O)OC[C@@H]1C[C@@H](n2ccc3c(N[C@H]4CCc5ccccc54)ncnc32)C[C@@H]1O  Cmax (human; intravenous, 15 mg/m^2 single dose, day 8, added: itraconazole): 193 ng/mL
CCc1nc(C(N)=O)c(Nc2ccc(N3CCC(N4CCN(C)CC4)CC3)c(OC)c2)nc1NC1CCOCC1  Cmax (human, moderate hepatic impairment, plasma; oral, 10 mg, single dose, fasted, geometric LS mean): 6.24 ng/mL
CC(C)(Sc1ccncc1-c1ccc(C#N)c2ccccc12)C(=O)O  Cmax (human, plasma; oral, 2.5 mg, added: febuxostat 40 mg): 3.45 ng/mL
CN(C)CCCN1c2ccccc2Sc2ccc(Cl)cc21  Cmax (human, plasma; oral, dose not given, clinical literature data): 400 nM
N[C@]1(C(=O)O)[C@H]2[C@@H](C[C@@H]1F)[C@@H]2C(=O)O  Cmax (human, fed, plasma; oral, 20 mg multiple, day 14): 77.8 ng/mL
O=C(c1ccc(OCCN2CCCCC2)cc1)c1c(-c2ccc(O[C@@H]3O[C@H](C(=O)O)[C@@H](O)[C@H](O)[C@H]3O)cc2)sc2cc(O)ccc12  Cmax (human, plasma; oral, 60 mg raloxifene, chronic green tea): 64.1 nM
Nc1ccc(-c2nc([C@H]3CCc4cc(-c5cc(Cl)ccc5-n5cnnn5)cc(=O)n43)c(F)[nH]2)c(F)n1  Cmax (human, plasma; oral, 250 mg once daily, fed, day 1): 1770 ng/mL
CN1CC[C@H](c2c(O)cc(O)c3c(=O)cc(-c4ccccc4Cl)oc23)[C@H](O)C1  Cmax (human patients, phase I, plasma; intravenous, 50 mg/m^2, lowest of range): 2220 nM
CN1CC(=O)N2[C@H](c3ccc4c(c3)OCO4)c3[nH]c4ccccc4c3C[C@@H]2C1=O  Cmax (human; oral, 40 mg, free combination, EU-sourced, geometric mean, added: macitentan 10 mg): 598 ng/mL
C=C(C)[C@@H]1CC[C@]2(NCCN3CCS(=O)(=O)CC3)CC[C@]3(C)[C@H](CC[C@@H]4[C@@]5(C)CC=C(C6=CC[C@@](CF)(C(=O)O)CC6)C(C)(C)[C@@H]5CC[C@]43C)[C@@H]12  Cmax (human; oral, 50 mg once daily, day 14, multiple ascending dose): 414 ng/mL
Cc1cn(-c2cc(NC(=O)c3ccc(C)c(Nc4nccc(-c5cccnc5)n4)c3)cc(C(F)(F)F)c2)cn1  Cmax (human, serum; oral, 300 mg twice daily, steady state): 1170 ng/mL
C=C(C)[C@@H]1CC[C@]2(NCCN3CCS(=O)(=O)CC3)CC[C@]3(C)[C@H](CC[C@@H]4[C@@]5(C)CC=C(C6=CC[C@@](CF)(C(=O)O)CC6)C(C)(C)[C@@H]5CC[C@]43C)[C@@H]12  Cmax (human, plasma; oral, 100 mg once daily for 7 days, day 7, moderate-fat meal): 830 ng/mL
O=C(/C=C/c1cccc(S(=O)(=O)Nc2ccccc2)c1)NO  Cmax (human moderate liver dysfunction, plasma; intravenous, 400 mg/m^2, 30 min infusion, cycle 1 day -7): 22100 ng/mL
CNC(=O)c1c(C)oc2cc(Oc3ncnc4cc(OC)c(OC)cc34)ccc12  Cmax (human, plasma; oral, 5 mg, fasted): 117 ng/mL
COc1cc(C(=O)O)ccc1NC(=O)[C@@H]1N[C@@H](CC(C)(C)C)[C@](C#N)(c2ccc(Cl)cc2F)[C@H]1c1cccc(Cl)c1F  Cmax (human, plasma; oral, 200 mg, steady state, added: venetoclax 600 mg): 4130 ng/mL
CO[C@H]1C[C@@H]2CC[C@@H](C)[C@@](O)(O2)C(=O)C(=O)N2CCCC[C@H]2C(=O)O[C@H]([C@H](C)C[C@@H]2CC[C@@H](O)[C@H](OC)C2)CC(=O)[C@H](C)/C=C(\C)[C@@H](O)[C@@H](OC)C(=O)[C@H](C)C[C@H](C)/C=C/C=C/C=C/1C  Cmax (human, whole blood; oral, 30 mg, added: grapefruit juice): 82.1 ng/mL
CNCc1ccc(-c2[nH]c3cc(F)cc4c3c2CCNC4=O)cc1  Cmax (human patients, plasma; oral, 500 mg once daily, day 15, steady state, arithmetic mean): 1390 ng/mL
O=C(c1cc(Cc2n[nH]c(=O)c3ccccc23)ccc1F)N1CCN(C(=O)C2CC2)CC1  Cmax (human patients, plasma; oral, 50 mg, day 1, alone): 1800 ± 1100 ng/mL
COc1ccnc(C[S+]([O-])c2nc3ccc(OC(F)F)cc3[nH]2)c1OC (stereo not shown)  Cmax (human, CYP2C19 rapid metabolizers, plasma; oral, 40 mg/day, day 5): 5460 ng/mL
CCOc1ccc(Cc2cc([C@@H]3S[C@H](CO)[C@@H](O)[C@H](O)[C@H]3O)c(OC)cc2C)cc1  Cmax (human, plasma; oral, 5 mg/day, day 7, multiple dose before breakfast): 248 ± 45.1 ng/mL
Cc1[nH]c(/C=C2\C(=O)Nc3ccccc32)c(C)c1CCC(=O)O  Cmax (human patients; oral, 200 mg/m^2 three times daily, after meal, dose 82): 4680 ± 1490 ng/mL
CCCCCCCCCCCCCCC[C@H](O)[C@@H](N)CO  Cmax (human, phase I, plasma; intravenous, 60 mg/m^2, day 1, monotherapy): 1700 nM
COc1cc2nccc(Oc3ccc(NC(=O)NC4CC4)c(Cl)c3)c2cc1C(N)=O  Cmax (human, plasma; oral, 5 mg, arithmetic mean, added: ketoconazole 400 mg/day): 54.6 ng/mL
CC(C)(C(=O)NCC(F)(F)C(F)(F)F)C(=O)N[C@@H]1C(=O)Nc2ccccc2-c2ccccc21  Cmax (human, plasma; oral, 10 mg, day 15, added: bevacizumab): 189 ng/mL
O=C(c1cccnc1-c1ccncc1)N1CCC(O)(Cc2ccccc2)CC1  Cmax (healthy human, plasma; oral, 400 mg once daily, day 1, arithmetic mean): 2630 ng/mL
CCCS(=O)(=O)N[C@H]1C[C@@H](N(C)c2ncnc3[nH]ccc23)C1  Cmax (humans, moderate hepatic impairment; oral, 200 mg single): 1430 ng/mL
COc1ccc2nc([S@@+]([O-])Cc3ncc(C)c(OC)c3C)[nH]c2c1  Cmax (human, CYP2C19 intermediate metabolizers, plasma; oral, 40 mg/day, day 5): 6580 ± 5290 ng/mL
O=C(O)[C@H](c1ccccc1Cl)N1CCc2sccc2C1  Cmax (human patients, CYP3A4 wt/wt, plasma; oral, 75 mg clopidogrel daily, day 7, median): 1950 ng/mL
Cl.NCCc1c[nH]c(=S)n1[C@H]1COc2c(F)cc(F)cc2C1  Cmax (mean; human, male, plasma; oral, 200 mg, fed, high-fat high-calorie meal): 166 ng/mL
CN(CCOc1ccc(CC2SC(=O)NC2=O)cc1)c1ccccn1 (stereo not shown)  Cmax (human, both sexes, plasma; oral, 4 mg, day 3, geometric mean, added: SCY-078 750 mg): 235 ng/mL
COc1cc2ncnc(Nc3ccc(F)c(Cl)c3)c2cc1OCCCN1CCOCC1  Cmax (human, plasma; oral, 250 mg, median): 250 ng/mL
CN(Cc1cnc2nc(N)nc(N)c2n1)c1ccc(C(=O)N[C@@H](CCC(=O)O)C(=O)O)cc1  Cmax (human, both sexes, plasma; oral, 20 mg, day 1, alone, arithmetic mean): 607 ng/mL
CC(O)C(C)n1ncn(-c2ccc(N3CCN(c4ccc(OCC5COC(Cn6cncn6)(c6ccc(Cl)cc6Cl)O5)cc4)CC3)cc2)c1=O (stereo not shown)  Cmax (human male, plasma; oral, dose not given, day 3, geometric mean, added: itraconazole 200 mg pretreatment): 730 ng/mL
C=CC(=O)Nc1cc(Nc2ncc(C(=O)OC(C)C)c(-c3cn(C)c4ccccc34)n2)c(OC)cc1N(C)CCN(C)C  Cmax (human, fasted; oral, 120 mg single dose, arithmetic mean): 27.6 ng/mL
O=C(NC[C@H]1CN(c2ccc(N3CCOCC3=O)cc2)C(=O)O1)c1ccc(Cl)s1  Cmax (human; 20 mg once daily, day 3): 408 ± 97.8 ng/mL
CN[C@@H]1COc2c(S(=O)(=O)NC(=O)Nc3c4c(cc5c3CCC5)CCC4)cnn2C1  Cmax (human; oral, 600 mg, high-fat meal, geometric LS mean): 23100 ng/mL
CS(=O)(=O)n1cc2c(n1)CN([C@H]1CO[C@H](c3cc(F)ccc3F)[C@@H](N)C1)C2  Cmax (healthy male human, plasma; oral, 25 mg once weekly, day 1, fasted, geometric mean): 610 nM
CNCc1ccc(-c2[nH]c3cc(F)cc4c3c2CCNC4=O)cc1  Cmax (human cancer patients, plasma; intravenous, 8 mg/m2, day 1, added: temozolomide 100): 473 ng/mL
O=C(O)CCCCCCCNC(=O)c1ccccc1O  Cmax (human mild renal impairment, plasma; oral, dose not given, after tenth daily dose, geometric mean): 1090 nM
CN(C)Cc1c(C(=O)NCCOc2ccc(C(=O)NO)cc2)oc2ccccc12  Cmax (human, plasma; oral, 60 mg, single dose on day -3): 89.8 ± 22.3 ng/mL
CCCCC1(CCCC)CN(c2ccccc2)c2cc(SC)c(OCC(=O)N[C@@H](C(=O)NCC(=O)O)c3ccccc3)cc2S(=O)(=O)C1  Cmax (LC-MS/MS; human, plasma; oral, 10 mg, single dose, fasted): 1.36 ng/mL
CN1CC[C@H](c2c(O)cc(O)c3c(=O)cc(-c4ccccc4Cl)oc23)[C@H](O)C1  Cmax (human advanced solid tumours, plasma; intravenous, 60 flavopiridol, added: oxaliplatin 85 + leucovorin/5-FU): 940 ± 240 nM
C=CCNC1=C2C[C@@H](C)C[C@H](OC)[C@H](O)[C@@H](C)/C=C(\C)[C@H](OC(N)=O)[C@@H](OC)/C=C\C=C(/C)C(=O)NC(=CC1=O)C2=O  Cmax (human, plasma; intravenous infusion, 400 mg/m^2, day 1, 3 h infusion): 10300 nM
O=C(CCCCCCNC(=O)c1cnc(N(c2ccccc2)c2ccccc2)nc1)NO  Cmax (human, plasma; oral, 160 mg daily): 610 ± 163 ng/mL
CC(C)(Sc1ccncc1-c1ccc(C#N)c2ccccc12)C(=O)O  Cmax (human male, plasma; oral, 10 mg once daily, day 7 or 21, arithmetic mean): 15.6 ng/mL
O=CC[C@@H](O)[C@H](O)[C@H](O)CO  Cmax (HPLC-fluorescence; human patients, plasma; oral, 60 mg/kg/day, cycle 2): 606000 ± 277000 nM
COc1c(OCCCN2CCOCC2)ccc2c1N=C(NC(=O)c1cnc(N)nc1)N1CCN=C21  Cmax (human cancer patients, plasma; intravenous, 0.4 mg/kg weekly, cycle 1 day 15, geometric mean, added: refametinib 50 mg twice daily): 154 ng/mL
Cc1cc(-c2nnc(N)nc2-c2ccc(F)cc2)cc(Cl)n1  Cmax (human patients, plasma; oral, 75 mg capsule, single dose, arithmetic mean): 429 ng/mL
CN1C(=O)[C@@H](NC(=O)c2nnc(Cc3ccccc3)[nH]2)COc2ccccc21  Cmax (human male, plasma; oral, 60 mg twice daily, day 1): 1090 ng/mL
NC(=O)N1CCC(CC(=O)N2CCC([C@H]3c4ncc(Br)cc4CCc4cc(Cl)cc(Br)c43)CC2)CC1  Cmax (human, plasma; oral, 200 mg twice daily, cycle 1 day 15, added: gemcitabine 600 mg/m2): 2040 ng/mL
Cc1nc(-c2ccc(OCC(C)C)c(C#N)c2)sc1C(=O)O  Cmax (human, plasma; oral, 80 mg, added: verinurad 5 mg): 1080 ng/mL
